Results from different studies.
Protocols differ between the studies behind these lines. ± marks the error that the study gave. Ends that are not written are not given here.
B1: enzyme N488A (Limosilactobacillus reuteri, UniProt Q8GP32); chain SADTNIENNDSSTVQVTTGDNDIAVKSVTLGSGQVSAASDTTIRTSANANSASSAANTQNSNSQVASSAAITSSTSSAASSNNTDSKAAQENTNTAKNDDTQKAAPANESSEAKNEPAVNVNDSSAAKNDDQQSSKKNTTAKLNKDAENVVKKAGIDPNSLTDDQIKALNKMNFSKAAKSGTQMTYNDFQKIADTLIKQDGRYTVPFFKASEIKNMPAATTKDAQTNTIEPLDVWDSWPVQDVRTGQVANWNGYQLVIAMMGIPNQNDNHIYLLYNKYGDNELSHWKNVGPIFGYNSTAVSQEWSGSAVLNSDNSIQLFYTRVDTSDNNTNHQKIASATLYLTDNNGNVSLAQVANDHIVFEGDGYYYQTYDQWKATNKGADNIAMRDAHVIEDDNGDRYLVFEASTGLENYQGEDQIYNWLNYGGDDAFNIKSLFRILSNDDIKSRATWAAAAIGILKLNKDEKNPKVAELYSPLISAPMVSDEIERPNVVKLGNKYYLFAATRLNRGSNDDAWMNANYAVGDNVAMVGYVADSLTGSYKPLNDSGVVLTASVPANWRTATYSYYAVPVAGKDDQVLVTSYMTNRNGVAGKGMDSTWAPSFLLQINPDNTTTVLAKMTNQGDWIWDDSSENLDMIGDLDSAALPGERDKPVDWDLIGYGLKP
Sequence of UniProt P27487 (whole entry, looked up): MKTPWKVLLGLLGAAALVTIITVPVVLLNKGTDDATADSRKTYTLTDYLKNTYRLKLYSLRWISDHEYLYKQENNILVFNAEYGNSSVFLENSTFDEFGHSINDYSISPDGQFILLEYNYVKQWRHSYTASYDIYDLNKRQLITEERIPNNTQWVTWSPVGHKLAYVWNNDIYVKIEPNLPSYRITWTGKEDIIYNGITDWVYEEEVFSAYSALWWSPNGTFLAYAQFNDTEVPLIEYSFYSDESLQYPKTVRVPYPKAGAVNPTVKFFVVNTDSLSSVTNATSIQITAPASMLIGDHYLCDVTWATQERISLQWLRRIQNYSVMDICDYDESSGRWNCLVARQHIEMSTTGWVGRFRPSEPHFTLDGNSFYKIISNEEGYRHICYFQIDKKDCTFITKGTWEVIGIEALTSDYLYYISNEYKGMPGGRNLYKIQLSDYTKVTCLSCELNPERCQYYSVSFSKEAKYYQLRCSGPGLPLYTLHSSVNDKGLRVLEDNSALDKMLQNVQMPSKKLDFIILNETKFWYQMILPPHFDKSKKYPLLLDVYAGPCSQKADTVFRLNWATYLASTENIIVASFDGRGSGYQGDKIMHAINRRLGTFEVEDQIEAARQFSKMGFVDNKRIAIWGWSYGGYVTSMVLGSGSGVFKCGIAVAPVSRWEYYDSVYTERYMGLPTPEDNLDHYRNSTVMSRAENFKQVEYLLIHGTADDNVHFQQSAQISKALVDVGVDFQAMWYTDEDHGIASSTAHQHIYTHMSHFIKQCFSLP
Sequence of UniProt O04161 (whole entry, looked up): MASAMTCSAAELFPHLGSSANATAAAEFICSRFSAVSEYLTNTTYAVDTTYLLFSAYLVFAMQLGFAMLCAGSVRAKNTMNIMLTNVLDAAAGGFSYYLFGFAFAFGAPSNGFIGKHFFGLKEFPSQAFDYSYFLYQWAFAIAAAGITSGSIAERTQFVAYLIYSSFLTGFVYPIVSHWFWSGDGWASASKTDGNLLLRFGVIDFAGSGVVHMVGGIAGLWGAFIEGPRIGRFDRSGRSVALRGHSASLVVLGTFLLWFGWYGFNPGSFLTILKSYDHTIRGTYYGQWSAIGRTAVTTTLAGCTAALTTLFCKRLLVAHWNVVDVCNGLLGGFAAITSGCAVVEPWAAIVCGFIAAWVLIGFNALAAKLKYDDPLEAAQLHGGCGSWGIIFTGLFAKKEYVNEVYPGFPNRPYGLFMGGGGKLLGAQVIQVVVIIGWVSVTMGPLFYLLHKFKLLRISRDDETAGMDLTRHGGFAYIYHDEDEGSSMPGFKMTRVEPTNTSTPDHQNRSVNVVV

Substance | target or system | assay | test system | setting | measurement | result
CC[C@H]1CN2CCc3cc(OC)c(OC)cc3[C@@H]2C[C@@H]1C[C@@H]1c2cc(OC)c(OC)cc2CCN1C(=O)[C@@H]1CCCN1C(=O)[C@H](C)N | Dipeptidyl peptidase 4 (DPP4, Homo sapiens, UniProt P27487) | substrate, HPLC-MS | – | 500 µM, 24 h, pH 7.8, 37 °C, 1% DMSO, added: DPPIV 30 nM | emetine released | 0%
melittin | – | CD titration | POPC 75% POPG 25% vesicles | pH 7.0, 25 °C | free energy of partitioning | -7.12 kcal/mol
bop full-length with retinal D85E/D96Q (Halobacterium salinarum) | – | UV-vis, item: Glu85 | membranes | resting state, numbering of the source | pKa | 9.7
N=C(N)NCCC[C@@H]1NC(=O)[C@H](CCCCNC(=O)CNC(=O)CNC(=O)CNC(=O)CC[C@H](NC(=O)CCOCCOCCOCCOCCNC(=O)c2ccc(NN)nc2)C(=O)NCC(=O)NCC(=O)NCC(=O)NCCCC[C@@H]2NC(=O)[C@@H](Cc3ccccc3)NC(=O)[C@H](CC(=O)O)NC(=O)CNC(=O)[C@H](CCCNC(=N)N)NC2=O)NC(=O)[C@@H](Cc2ccccc2)NC(=O)[C@H](CC(=O)O)NC(=O)CNC1=O [technetium-99m labelled] | – | γ-counting | female athymic nude mice, U-87 MG xenograft, blood | intravenous, 0.5 h | tissue uptake | 0.65 ± 0.15 %ID/g
B1 (enzyme N488A) | OC[C@H]1O[C@@](CO)(O[C@H]2O[C@H](CO)[C@@H](O)[C@H](O)[C@H]2O)[C@@H](O)[C@@H]1O | steady-state kinetics | – | pH 5.5, 50 °C, apparent | K0.5 | 19000 µM
COc1cccc2c1C(=O)c1c(O)c3c(c(O)c1C2=O)C[C@@](O)(C(=O)CO)C[C@@H]3O[C@H]1C[C@H](NC(=O)[C@H](CC(C)C)NC(=O)[C@H](C)NC(=O)[C@H](CC(C)C)NC(=O)CCNC(=O)CCC(=O)O)[C@H](O)[C@H](C)O1 | – | – | mouse, E0771 tumour-bearing, liver | intravenous, 92 µmol/kg | terminal half-life | 20.5 h
N=C(N)NCCC[C@@H]1NC(=O)[C@H](CCCCNC(=O)[C@H](CC(=O)O)NC(=O)[C@H](CC(=O)O)NC(=O)[C@H](CC(=O)O)NC(=O)CC[C@H](NC(=O)CCOCCOCCOCCOCCNC(=O)c2ccc(NN)nc2)C(=O)N[C@@H](CC(=O)O)C(=O)N[C@@H](CC(=O)O)C(=O)N[C@@H](CC(=O)O)C(=O)NCCCC[C@@H]2NC(=O)[C@@H](Cc3ccccc3)NC(=O)[C@H](CC(=O)O)NC(=O)CNC(=O)[C@H](CCCNC(=N)N)NC2=O)NC(=O)[C@@H](Cc2ccccc2)NC(=O)[C@H](CC(=O)O)NC(=O)CNC1=O [technetium-99m labelled] | – | γ-counting | female athymic nude mice, U-87 MG xenograft, heart | intravenous, 1 h | tissue uptake | 1.66 ± 0.05 %ID/g
enzyme (Solanum lycopersicum, UniProt O04161) | CN | steady-state kinetics | – | not purified | K0.5 | 5600 µM
COc1cccc2c1C(=O)c1c(O)c3c(c(O)c1C2=O)C[C@@](O)(C(=O)CO)C[C@@H]3O[C@H]1C[C@H](NC(=O)[C@@H]2CCCN2C(=O)CNC(=O)[C@H](CC(C)C)NC(=O)[C@H](C)NC(=O)CP(=O)(O)O)[C@H](O)[C@H](C)O1 | – | – | mouse, E0771 tumour-bearing, liver | intravenous, 92 µmol/kg | Cmax | 69 µM
KCNTATCATQRLANFLVHSSNNFGPILPPTNVGSNTY (Pramlintide; not fully specified (C-terminus, bridges); cysteine pairing not given here; sequence looked up) | – | item: Influenza | peptide, obese or overweight humans | concentration not given, ITT population | adverse event incidence | 5.4%
CSCC[C@H](NC(=O)[C@H](CC(C)C)NC(=O)[C@H](Cc1c[nH]cn1)NC(=O)CNC(=O)[C@@H](NC(=O)[C@H](C)NC(=O)[C@H](Cc1c[nH]c2ccccc12)NC(=O)[C@H](CCC(N)=O)NC(=O)CCCCCNC(=O)[C@H](CCC(=O)NCCCC[C@@H]1NC(=O)[C@@H](Cc2ccc(O)cc2)NC(=O)[C@H](CC(=O)O)NC(=O)CNC(=O)[C@H](CCCNC(=N)N)NC1=O)NC(=O)CN1CCN(CC(=O)O)CCN(CC(=O)O)CC1)C(C)C)C(N)=O [copper-64 labelled] | – | – | ICR SCID mouse, female, kidneys | intravenous, 750 kBq, 4 h | tissue uptake | 2.18 ± 0.26 %ID/g

Some of these lines once more:
Substance | target or system | assay | test system | setting | measurement | result
N=C(N)NCCC[C@@H]1NC(=O)[C@H](CCCCNC(=O)[C@H](CC(=O)O)NC(=O)[C@H](CC(=O)O)NC(=O)[C@H](CC(=O)O)NC(=O)CC[C@H](NC(=O)CCOCCOCCOCCOCCNC(=O)c2ccc(NN)nc2)C(=O)N[C@@H](CC(=O)O)C(=O)N[C@@H](CC(=O)O)C(=O)N[C@@H](CC(=O)O)C(=O)NCCCC[C@@H]2NC(=O)[C@@H](Cc3ccccc3)NC(=O)[C@H](CC(=O)O)NC(=O)CNC(=O)[C@H](CCCNC(=N)N)NC2=O)NC(=O)[C@@H](Cc2ccccc2)NC(=O)[C@H](CC(=O)O)NC(=O)CNC1=O [technetium-99m labelled] | – | γ-counting | female athymic nude mice, U-87 MG xenograft, heart | intravenous, 1 h | tissue uptake | 1.66 ± 0.05 %ID/g
